Measurements from different studies.
Compare with care: the assays were run in different laboratories. ± marks the error that the study gave.

`O=c1cc(-c2ccccc2)oc2c(Br)c(O)c(O)c(O)c12` has a Vd of 0.108 L (C57BL/6 mouse, plasma; intravenous, 10 mg/kg, single dose).
For `Cc1cc(-c2ccc3ccccc3c2)nnc1NCCN1CCN(C)CC1`, the half-life was > 1 h (metabolic stability; rat, liver microsomes).
`Cc1ccc2ccc3ccc(C)nc3c2n1.O.[99Tc+].[C-]#[O+].[C-]#[O+].[C-]#[O+]` gave a capacity factor of 0.97 (RP-HPLC C18 column, item: free diimine ligand; MeCN:water 40:60, 0.1% TFA; isocratic elution).
With `C[C@H]1N=C(c2ccccc2F)c2cc(Br)ccc2-n2cnc(C(=O)NCCS(=O)(=O)O)c21` the cumulative excretion was 0.6 ± 0.1% (LC-MS/MS; Swiss Webster mouse, female, urine; intravenous, 250 µg parent drug, 0 to 24 h).
For `CC[C@@H]1C[C@]1(NC(=O)[C@@H]1C[C@@]2(CN1C(=O)[C@@H](NC(=O)[C@@H](NC(=O)[C@@H]1CCCCN1C(C)C)C1CCCCC1)C(C)(C)C)C(C)(C)C21CCC1)C(=O)NS(=O)(=O)N1CCCC1`, “subjects with adverse event” read 0% (item: Nausea; healthy human; oral, 50 mg, with: ritonavir 100 mg).
With `CN(C)C(CNC(=O)Nc1cc(C(F)(F)F)ccc1N1CCOCC1)c1ccncc1` (stereo not drawn) the serum iron was 124 µg/dL (mouse, serum; intraperitoneal, 180 mg/kg single dose).
With `CC(C)C[C@@H](N)C(=O)NCC(=O)N[C@H](C)C(=O)N[C@H](CO)C(=O)N[C@H](Cc1c[nH]c2ccccc12)C(=O)N[C@H](Cc1c[nH]cn1)C(=O)N[C@H](CCCNC(=N)N)C(=O)N1CCC[C@@H]1C(=O)N[C@H](CC(=O)O)C(=O)N[C@H](CCCCN)C(=O)N[C@H](CS)C(=O)N[C@H](CS)C(=O)N[C@H](CC(C)C)C(=O)NCC(=O)N[C@H](Cc1ccc(O)cc1)C(=O)N[C@H](CCC(N)=O)C(=O)N[C@H](CCCCN)C(=O)N[C@H](CCCNC(=N)N)C(=O)N1CCC[C@@H]1C(=O)N[C@H](CC(C)C)C(=O)N1CCC[C@@H]1C(N)=O` the accuracy was 99.1% (LC-MS/MS; rat plasma; 25 ng/mL, 30 days, -80 °C, storage; relative to: nominal).
`COc1cc(NC(=O)C(=O)c2c(C)n(Cc3ccc(Cl)cc3)c3ccc(C)cc23)ccn1` gave an AUC(0-inf) of 2630 ng·h/mL (cynomolgus monkey, male, plasma; oral, 10 mg/kg).
The plasma concentration of `CC(CCC(=O)NCC(=O)O)C1CCC2C3CCC4CC(OC5OC(C(=O)O)C(O)C(O)C5O)CCC4(C)C3CC(O)C12C` (stereo not drawn) is reported as 367 ng/mL (human, SLCO1B1 c.521 C/C, plasma; fasting, geometric mean, sex-adjusted).
For `O=C(c1ccc(F)cc1)C1CCN(C2Cc3c(cccc3OCC[18F])CC2O)CC1` (single isomer, unassigned; (-)), the tracer uptake was 0.548 %ID/g (rat, brain; 1 h).
With `COc1ccc(NC(=O)Cn2c(=O)c3ccccc3n(CC(=O)Nc3cc([125I])c(OC)cc3OC)c2=O)cc1` the tracer uptake was 0.01 %ID/g (rat, brain; intravenous, 5 min).
`CC(C)[C@H](NC(=O)CNC(=O)[C@H](CCC(N)=O)NC(=O)[C@H](C)N)C(=O)O` — result for “subjects with any adverse event”: 33.3% (human; 10 mg/kg single dose).
For `[3H]c1sc(C)nc1C=C(C)C1CC2C(CCCC(C)C(O)C(C)C(=O)C(C)(C)C(O)CC(=O)O1)N2CCO` (stereo not drawn), the plasma concentration was 30.2 ± 7.7 ng/mL (CD2F1 mice, plasma; intravenous, 2.2 nmol/kg, 6 h).
For `CCCCCCCCNP(=O)(Oc1ccccc1)O[C@@H]1O[C@H](CO)[C@@H](O)[C@H](O)[C@H]1F` (stereo partly drawn), “hydrolysis rate constant” read 0.0014 min⁻¹ (phosphate buffer with DMSO; 100 µM, pH 6.8, 37 °C).
`COC(=O)C[C@](O)(CCCC(C)(C)OC(C)=O)C(=O)O[C@@H]1C(OC)=C[C@]23CCCN2CCc2cc4c(cc2[C@H]13)OCO4` has a tissue concentration of 154 ng/mL (CD1 mouse, bone marrow; oral, 1 mg/kg, 0.5 h).
For `CC[C@H](C)C(=O)N1CCC(NC(=O)Nc2ccc(OC(F)(F)F)c(F)c2)CC1`, “subjects with treatment-emergent photophobia” read 0% (healthy volunteers, both sexes; oral, 8 mg, fasted state).
The fractional helicity of `CC[C@H](C)[C@H](NC(=O)[C@H](CCCCN)NC(=O)CNC(=O)[C@@H](NC(=O)[C@@H](NC(=O)[C@H](CC(N)=O)NC(=O)[C@H](CC(=O)O)NC(=O)[C@@H](N)CC(=O)O)C(C)C)[C@@H](C)CC)C(=O)N[C@@H](Cc1c[nH]c2ccccc12)C(=O)N[C@@H](CO)C(=O)N[C@@H](CCCCN)C(=O)N[C@@H](CC(C)C)C(=O)N[C@H](C(=O)N[C@H](C(=O)N[C@H](C(=O)N[C@H](C(=O)N[C@H](C(=O)N[C@@H](CCCCN)C(=O)N[C@H](C(=O)N[C@@H](Cc1ccccc1)C(=O)N[C@H](C(=O)N[C@@H](CCCCN)C(=O)O)[C@@H](C)O)[C@@H](C)CC)[C@@H](C)O)[C@@H](C)CC)C(C)C)[C@@H](C)O)[C@@H](C)CC` is reported as 0.61 (circular dichroism; POPC vesicles; pH 7.5).
For `C1=[N+]2CCCC[N+]3=Cc4ccc5[n]4[Au-]23[n]2c1ccc2-c1nc2ccccc2nc1-5.F[P-](F)(F)(F)(F)F`, the survival was 100% (female athymic nude mice; intraperitoneal, 100 to 400 mg/kg/dose, 17 d).
With `COC[C@@H](NC(C)=O)C(=O)NCc1ccc(OCc2cccc(Cl)c2)cc1` the TD50 was > 500 mg/kg (behavioural toxicity; rat; oral).
Under “volume of distribution at steady state”, `CC(C)C[C@H](NC(=O)[C@H](CCCCN)NC(=O)[C@H](CCC(=O)O)NC(=O)[C@H](C)NC(=O)[C@@H](NC(=O)[C@H](CCCCN)NC(=O)[C@H](CC(=O)O)NC(=O)[C@H](Cc1ccc(O)cc1)NC(=O)[C@H](Cc1ccccc1)NC(=O)[C@H](C)NC(=O)[C@H](CCCCN)NC(=O)[C@H](CC(C)C)NC(=O)[C@H](Cc1c[nH]c2ccccc12)NC(=O)[C@@H](N)CC(=O)O)C(C)C)C(=O)N[C@@H](CCCCN)C(=O)N[C@@H](CCC(=O)O)C(=O)N[C@@H](C)C(=O)N[C@@H](Cc1ccccc1)C(=O)N1CCC[C@H]1C(=O)N[C@@H](CC(=O)O)C(=O)N[C@@H](Cc1c[nH]c2ccccc12)C(=O)N[C@@H](C)C(=O)N[C@@H](CCCCN)C(=O)N[C@@H](C)C(=O)N[C@@H](C)C(=O)N[C@@H](Cc1ccc(O)cc1)C(=O)N[C@@H](CC(=O)O)C(=O)N[C@@H](CCCCN)C(=O)N[C@@H](C)C(=O)N[C@@H](C)C(=O)N[C@@H](CCC(=O)O)C(=O)N[C@@H](CCCCN)C(=O)N[C@@H](C)C(=O)N[C@@H](CCCCN)C(=O)N[C@@H](CCC(=O)O)C(=O)N[C@@H](C)C(=O)N[C@@H](C)C(=O)O` is recorded as 0.057 L/kg (cynomolgus monkey female, plasma; intravenous infusion, 75 mg/kg every other day, day 27).
For `CC(C)C[C@H](NC(=O)[C@H](Cc1ccc(O)cc1)NC(=O)[C@H](C)NC(=O)[C@@H](NC(=O)[C@H](CC(C)C)NC(=O)[C@H](C)NC(=O)[C@H](C)NC(=O)[C@H](CCCCN)NC(=O)CNC(=O)[C@@H](NC(=O)[C@H](Cc1c[nH]cn1)NC(=O)[C@H](CCCCN)NC(=O)CNC(=O)[C@@H](NC(=O)[C@H](Cc1c[nH]cn1)NC(=O)[C@@H](NC(=O)[C@H](C)NC(=O)[C@H](CCCCN)NC(=O)[C@H](CCCCN)NC(=O)[C@H](Cc1ccccc1)NC(=O)[C@H](Cc1c[nH]c2ccccc12)NC(=O)[C@H](CCCCN)NC(=O)CNC(=O)[C@H](Cc1c[nH]c2ccccc12)NC(=O)[C@@H](N)CCCNC(=N)N)[C@@H](C)O)C(C)C)C(C)C)[C@@H](C)O)C(N)=O`, “acute toxic concentration” read 5 µg/mL (zebrafish embryos; 1 h, 4, 28, 52 hpf).

For quick reference, copied from above:
For `[3H]c1sc(C)nc1C=C(C)C1CC2C(CCCC(C)C(O)C(C)C(=O)C(C)(C)C(O)CC(=O)O1)N2CCO` (stereo not drawn), the plasma concentration was 30.2 ± 7.7 ng/mL (CD2F1 mice, plasma; intravenous, 2.2 nmol/kg, 6 h).
